# Measurements pooled from the literature.
# Lines come from different studies, so protocols differ. Numbers after ± are the reported error.
# Chain of UniProt P11712 (whole entry, looked up): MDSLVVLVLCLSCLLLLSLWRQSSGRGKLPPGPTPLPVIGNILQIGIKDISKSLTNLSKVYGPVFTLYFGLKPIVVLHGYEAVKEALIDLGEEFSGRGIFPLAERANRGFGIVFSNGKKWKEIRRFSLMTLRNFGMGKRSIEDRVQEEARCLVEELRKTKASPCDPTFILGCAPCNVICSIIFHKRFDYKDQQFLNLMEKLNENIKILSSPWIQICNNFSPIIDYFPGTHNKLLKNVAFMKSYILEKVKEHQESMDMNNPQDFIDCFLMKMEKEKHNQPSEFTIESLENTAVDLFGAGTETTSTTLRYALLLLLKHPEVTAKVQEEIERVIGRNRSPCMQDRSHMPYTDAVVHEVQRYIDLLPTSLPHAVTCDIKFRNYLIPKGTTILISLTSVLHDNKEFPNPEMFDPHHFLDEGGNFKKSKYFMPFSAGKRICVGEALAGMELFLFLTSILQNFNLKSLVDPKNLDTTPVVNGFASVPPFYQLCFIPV
SMILES,target or system,test,system,setting,measurement,value
[64Cu+2].c1cnc(CNCc2ccc(CN3CCCN4CCNCCCN(CC4)CC3)cc2)nc1,CXCR4,,"NOD/SCID mouse, U87 and U87-stb-CXCR4 xenografts, bladder","iv, 30 min, ex vivo",tissue uptake,3.47 ± 0.62 %ID/g
O=C(O)CCC(NP(=O)(O)OCCC[C@@H](NC(=O)CC[C@H](NC(=O)CCCCCNC(=O)c1ccc([18F])cc1)C(=O)O)C(=O)O)C(=O)O (some centres unmarked),CWR22Rv1 tumour model,,"host not given, tumour","1 h, tumour-bearing",tracer uptake,2.35 %ID/g
O=C([O-])CN1CCN(CC(=O)[O-])CCN(CC(=O)NCCc2ccc3c(c2)C2C=CCC2C(c2cc4c(cc2Br)OCO4)N3)CCN(CC(=O)[O-])CC1.[111In+3] (centres unmarked),Hec50 tumour model,,"host not given, bone","30 min, tumour-bearing",tracer uptake,1.32 %ID/g
C=CC(=O)Nc1cc(Nc2nccc(-c3cn(C)c4ccccc34)n2)c(OCC(F)(F)F)nc1N(C)CCN(C)C,"Cytochrome P450 2C9 (CYP2C9, Homo sapiens, UniProt P11712)","enzyme activity, inhibitor","human, liver microsomes",0.33 µM,activity vs control,105%
[64Cu+2].c1ccc(CNCc2ccc(CN3CCCN4CCNCCCN(CC4)CC3)cc2)nc1,"C-X-C chemokine receptor type 4 (CXCR4, Homo sapiens, UniProt P61073)",,"NOD/SCID mice, U87 xenografts, U87-stb-CXCR4 tumour",30 min post-injection,tissue uptake,13.3 ± 9.83 %ID/g
CO.COc1ccc2c(c1)c(CC(=O)[O-])c(C)n2C(=O)c1ccc(Cl)cc1.COc1ccc2c(c1)c(CC(=O)[O-])c(C)n2C(=O)c1ccc(Cl)cc1.O.[Co+2].c1ccc(Nc2ccccn2)nc1,calf thymus DNA,cyclic voltammetry,DMSO/buffer,"Co(II)/Co(I) couple, with DNA",anodic peak potential,-489 mV
CC(=O)N[C@H](C(=O)N[C@H](C(=O)N[C@@H](CCCNC(=N)N)C(=O)N1Cc2ccccc2C[C@H]1C(=O)N[C@@H](Cc1ccccc1)C(N)=O)C1CCCCC1)C(C)C,human PBMC,"Bio-Plex multiplex, item: GM-CSF",,"250 µg/mL, 24 h",cytokine level,< 6.9 pg/mL
Cn1c(=O)oc2ccc(-c3ccc(CC(C#N)NC(=O)C4CNCCCO4)c(F)c3)cc21 (centres unmarked),,,human,"oral, 20 mg once daily, TEAE, multiple ascending dose",skin exfoliation incidence,11.1%
